Assay results pooled from the literature.
Each numbered part is a random draw from the data of one study; scales do not carry over between parts.

Study 1
Target: Prothrombin, mature alpha-thrombin (F2, Homo sapiens, UniProt P00734)
Method: aptamer microarray, sandwich
Form: DNA with 2'F-ANA
Matrix: in vitro
Concentration: 200 nM
Setting: whole 15-mer aptamer, many near background
Together with: Cy3 exosite-II aptamer, 400 nM
Reading: higher = stronger binding
Strand: GGTTGGTGTGGTTGG
Modification | mean fluorescence intensity [a.u.]
2'F-ANA at 2 6 7 12 15 | 686
2'F-ANA at 1 3 6 8 10 12 13 15 | 119
2'F-ANA at 5 6 7 8 9 13 15 | 56.3
2'F-ANA at 1 4 5 11 12 15 | 111
2'F-ANA at 4 7 10 12 14 15 | 63.7
2'F-ANA at 1 2 5 6 9 10 13 14 | 46.5
2'F-ANA at 2 3 4 5 6 8 9 | 99.1
2'F-ANA at 1 4 5 6 8 11 12 14 | 54
2'F-ANA at 1 2 3 4 5 6 7 8 9 10 11 12 13 14 15 | 63.3
2'F-ANA at 1 3 4 6 8 9 10 11 12 15 | 74.2
2'F-ANA at 3 4 5 7 8 11 12 13 | 142
2'F-ANA at 1 5 9 10 11 12 13 | 53
2'F-ANA at 8 10 11 | 163
2'F-ANA at 2 4 5 7 10 11 13 14 | 49.6
2'F-ANA at 1 2 4 5 12 14 | 43.1
2'F-ANA at 3 4 6 9 11 13 14 | 223

Study 2
Target: RNA binding protein fox-1 homolog 2, RRM domain, GST-SBP tag (RBFOX2, Homo sapiens, UniProt O43251-10, residues 100-194)
Method: RNA Bind-n-Seq
Form: RNA
Matrix: in vitro
Concentration: 365 nM
Setting: natural RNA segment, single round, ends assumed
Baseline: no-protein control
Reading: higher = stronger binding
All sequences stand within: GGGAGUUCUACAGUCCGACGAUC … UGGAAUUCUCGGGUGCCAA
Residues (chain): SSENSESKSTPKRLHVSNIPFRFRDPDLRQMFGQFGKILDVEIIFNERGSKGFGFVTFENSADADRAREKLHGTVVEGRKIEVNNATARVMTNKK
Strand | RBNS enrichment (R)
UGCUGUCCUUAUUCCUGUUAAAAGCCUCUGGCACUAUGAACAACGCAGUGUGGGGACAGUGGGUGACUCAGAACUCUGCUGGUACCUGGGGGUGGAGCUAUCACUUCCUC | 0.247
ACUGAAAUCUGUAUCAGCUAAGAGUCCUCCAAUCCUGGUCCCAUUAACUCCAAGUGCCUUUUUGACAGUGACAACAGACAGUCCCUCGCUUUUUGUUGUUGUUGGUUUUC | 0.315
GCGCUGGGCUCGCUCAUGUGGUCGCCCUGCUGGUUCUGGCCCUGGGACUCGGAGCACUGACCCCUGCGCUUGGAUUGCUAGACUCCUCUUCCUCCUGGACCCCAUCCUCU | 0.276
CCACAGCACCCUCAAGCAUACGGCGCUGUUCCUGCCACUGUCCUGAAGAUGUGAAUGGGUGGUACGAUUUCAACACUGGUUAAUUUCACACUCCAUCUCCCCGCUUUGUA | 0.624
GGAUGAGAGAAGCCAGAGCAAGCAGCUCCCCCACCCUCGGCACAUCCCACCUCCCUCGCUCGCUAGUCUCGGCCGGACUUGGAAGACACUGAGAAUGUCCCCCCCAAUGG | 0.395
AUCAUUAAGACCACGGAGCAGCUCAUCGAGGCCGUCAACAACGGUGACUUUGAGGCCUACGGGAAAAUCUGUGACCCAGGGCUGACCUCGUUUGAGCCUGAAGCACUGGG | 0.178
UAUAACAGAUUGCUUAACUUCUACUUGCCAACAUCUGCCUUGCUGGACUUGUAUGGGAUUGUCUUCUUGAUUUGAAUUGUACCGUCUUUGUUGACACAGUAGGGCUGGGC | 0.7
UAUUGUGGGAGAGUCACUUUAAAGACUGUGCUAGUUGGAAACAGAGCUGUUGCUGUUGUCAGUCGAGUGCAGUUUUCUGCAGCGAUGUCAUAAGGAGUCAGAUUCCGUGA | 0.443

Study 3
Target: RING finger protein unkempt homolog, zinc fingers 1-6, GST-SBP tag (UNK, Homo sapiens, UniProt Q9C0B0, residues 30-357)
Method: RNA Bind-n-Seq
Form: RNA
Matrix: in vitro
Concentration: not given
Setting: RNA with constant flanks, human-mouse chimeric sites, ends assumed
Baseline: input RNA pool
Reading: higher = stronger binding
All sequences stand within: GGGAGUUCUACAGUCCGACGAUC … CAACAGAGGAUUGAGCAUCA
Construct (chain): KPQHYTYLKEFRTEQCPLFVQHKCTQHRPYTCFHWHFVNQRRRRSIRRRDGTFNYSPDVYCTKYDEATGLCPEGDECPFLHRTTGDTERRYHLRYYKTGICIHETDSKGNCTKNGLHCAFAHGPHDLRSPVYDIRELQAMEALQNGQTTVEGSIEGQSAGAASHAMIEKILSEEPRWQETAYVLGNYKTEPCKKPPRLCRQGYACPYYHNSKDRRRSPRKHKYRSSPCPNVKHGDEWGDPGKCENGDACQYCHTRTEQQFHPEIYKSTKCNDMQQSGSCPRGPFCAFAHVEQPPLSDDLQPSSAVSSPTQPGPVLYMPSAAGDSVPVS
Strand | bound/input enrichment [ratio]
UUUGUAUUUAUGCUAAGCACGCGUGCUGGUGGUCUGGGCAUCAAUCUUGCAACUGCUGAUGUAGUCAUUUUGUAUGACUCAGAUUGGAAUCCGCAAGUUGAUCUUCAGGCUAUGGACCGU | 0.108
GAAACAUUUAAAUUUAAAGAAGCUGUUGUUCUAGGAAGUACGGACUUCCUAGAAGAUGAUAUAGAGAAAAUUGUAGAAGAACUGGGGAAAGAAUACAAGGGCAACGCCUACCAUCUGAUG | 1.17
AAAGAACUACUGAGGCAAGGCAGCAAAUUUAGGAGAGACAUUUCAACACUAUUAAUAGAGUUAGGAUUCCAAAUUAAAAAAAAAACUAAGACAUUAUACAUCAACAAAGCCAAUGUGUGG | 12.1
CAGUCCCCGUGUCCCAGUGCAGGACGAUGUGAACAAAAACUCAAAGCGGACCCUCUAUUGUAGUUCUUUUUUUAAAUAAUGUGCUAUUAUUGUUUGUCUUUUUUUUUUUUUUUUUAAAGA | 2.31
AAUUUCCGCAACUGUUUUUUAGACAUUCACAUCAGACUUACAGAGCACCUGGCCACAUUCUAGGUUUGUGUUAUUUCUCAGCUAUGGAUAUGAUCAAAGAGUGAAAAUGCUUAACUAAUG | 0.452
UUACCCGAGAACGAGGAUGAGCUGGAGAGCACCAAUAGGCGCUACACCAAGAGGGACUGCAGCACUUUCCUCAGAACUAGUGAGACGGGCAUUGUGGACCAGGUCAUGGUCACUCUCAAC | 0.144
UUUGUUUUCAUGUUAAGCACACGUGCUGGUGGUCUGGGCAUCAAUCUUGCAACUGCUGAUGUAGUCAUUUUAUAUGACUCAGAUUGGAAUCCGCAAGUUGAUCUUCAGGCUAUGGACCGU | 0.116
GUGUCCUGCUUUCAACUUAAAUCACUGAGGCAUCUCUACUGUUCUGUGAGCAUCAGGACUGUAGCGCUGUGUCACCACAUGAGAGUUGUUAAGCAGCCUUUCUGUGGAGGGUGGGAAUGA | 0.0831

Study 4
Target: Histone acetyltransferase KAT6A, winged helix 2, GST fusion (KAT6A, Homo sapiens, UniProt Q92794, residues 85-181)
Method: protein binding microarray
Form: double-stranded DNA, one strand shown
Matrix: in vitro
Concentration: not given
Setting: 8-mer, flanks averaged, mean of 2 arrays, mostly near background
Baseline: not given
Reading: higher = stronger binding
Construct (chain): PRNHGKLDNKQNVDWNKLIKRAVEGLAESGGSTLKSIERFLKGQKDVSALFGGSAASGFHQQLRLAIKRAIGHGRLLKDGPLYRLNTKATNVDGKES
Strand | E-score
GGTTCCAA | 0.0665
ATAGTCGG | -0.144
CACGACGA | -0.0368
CCTTTTAC | -0.004
TCTGCAGA | -0.0121
CCTTGATC | 0.159
AGTTAGAC | 0.0647
GTGCCAAC | 0.0591
AACAATAA | 0.0822
AGGGCCCG | 0.0396
GATTATGA | -0.0529
GCCACCCA | 0.151
GCCTCTCA | -0.0428
GGAGTAAA | 0.0901
CATCGTTA | -0.243
CTACAGAG | 0.044
ACAGGTCT | -0.182
GATGTTAA | -0.0385
CACAACCC | -0.019
AATTGGGC | -0.0196
AGCGACAG | -0.00336
